Measured values collected from several papers.
A part holds a random share of what one study measured.
Chain of UniProt P42338 (whole entry, looked up): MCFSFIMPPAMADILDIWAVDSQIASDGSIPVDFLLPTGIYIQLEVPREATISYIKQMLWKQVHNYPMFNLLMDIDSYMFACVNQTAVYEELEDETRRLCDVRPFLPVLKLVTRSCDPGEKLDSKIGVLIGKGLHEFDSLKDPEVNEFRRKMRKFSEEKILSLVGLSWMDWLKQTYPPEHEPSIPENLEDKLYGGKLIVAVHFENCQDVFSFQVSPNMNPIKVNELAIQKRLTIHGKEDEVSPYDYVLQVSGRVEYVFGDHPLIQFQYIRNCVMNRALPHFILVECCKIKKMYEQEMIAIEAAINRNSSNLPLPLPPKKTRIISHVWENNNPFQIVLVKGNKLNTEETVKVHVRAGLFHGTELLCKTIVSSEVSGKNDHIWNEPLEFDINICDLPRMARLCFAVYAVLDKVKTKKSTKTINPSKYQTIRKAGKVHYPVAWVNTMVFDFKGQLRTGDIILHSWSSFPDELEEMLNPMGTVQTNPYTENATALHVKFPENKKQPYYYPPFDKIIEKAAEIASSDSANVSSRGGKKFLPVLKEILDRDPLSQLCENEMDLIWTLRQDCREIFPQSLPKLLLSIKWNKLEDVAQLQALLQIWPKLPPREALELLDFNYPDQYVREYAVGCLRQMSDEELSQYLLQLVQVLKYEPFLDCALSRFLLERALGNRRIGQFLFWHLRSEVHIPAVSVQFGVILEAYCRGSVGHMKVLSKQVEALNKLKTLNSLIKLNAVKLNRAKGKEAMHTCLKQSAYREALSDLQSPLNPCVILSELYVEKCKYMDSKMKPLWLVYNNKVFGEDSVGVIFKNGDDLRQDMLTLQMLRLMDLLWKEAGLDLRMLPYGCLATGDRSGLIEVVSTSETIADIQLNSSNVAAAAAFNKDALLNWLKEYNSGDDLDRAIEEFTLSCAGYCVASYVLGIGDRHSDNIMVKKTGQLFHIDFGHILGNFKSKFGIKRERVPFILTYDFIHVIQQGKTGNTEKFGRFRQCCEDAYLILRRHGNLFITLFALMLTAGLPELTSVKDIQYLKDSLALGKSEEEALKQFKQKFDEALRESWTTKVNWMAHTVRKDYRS

Sample 1 — technique: competition protein-binding microarray; form: double-stranded DNA, one strand shown; matrix: in vitro; concentration: 2 µM; added: Pho4 competitor, 0.05 µM; direction: higher = stronger binding; shared flanks, not repeated: … GTCTTGATTCGCTTGACGCTGCTG
Target: Centromere-binding protein 1, full length, His-tagged (CBF1, Saccharomyces cerevisiae, UniProt P17106, residues 1-351)
Chain of UniProt P17106 (whole entry, looked up): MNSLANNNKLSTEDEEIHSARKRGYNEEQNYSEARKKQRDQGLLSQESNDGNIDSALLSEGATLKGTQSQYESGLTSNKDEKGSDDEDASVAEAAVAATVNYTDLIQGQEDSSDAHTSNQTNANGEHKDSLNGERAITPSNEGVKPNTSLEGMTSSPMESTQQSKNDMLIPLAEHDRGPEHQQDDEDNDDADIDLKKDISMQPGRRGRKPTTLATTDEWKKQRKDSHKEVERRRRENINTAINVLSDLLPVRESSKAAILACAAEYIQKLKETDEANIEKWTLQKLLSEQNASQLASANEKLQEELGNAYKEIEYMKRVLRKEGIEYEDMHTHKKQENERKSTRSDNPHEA
Notes: whole 60-bp probe, lowest competitor level
Strand | fluorescence intensity [a.u.]
CTAAGCATATATCCTCACGTGACTCGGGCCACAGAC | 7760
TAGGCAGAGTGCTGGCACGATGATAGCGAGGGGTTG | 68.9
CGATTTTTGCCTCACCACGTTCTGCCCATTCTTCTC | 100
CTGGGACATATTCAGTTCGTGCCAGTTTTTAAAGGG | 82.8
AAATTACTAAGTTGTCACTTTACTTACCCCGTATGA | 85.6
CGGGGTTAAGTTTGTCACACGACTTGCTTGCAGCAG | 117
GTTTGGTCCTATCAACATGTGCCGAGAATTGTCGGA | 245
TATAATCCTGGTCGGAACGTGCAAAATATGAGAACG | 113

Sample 2 — technique: protein-binding microarray; form: double-stranded DNA, one strand shown; matrix: in vitro; concentration: not given; direction: higher = stronger binding
Target: Max dimerization protein 1, bHLH-zipper, MAX partner unstated (MXD1, Homo sapiens, UniProt Q05195, residues 56-136)
Notes: k-mer, scored over probes, only values ≥0.25
Target sequence (chain): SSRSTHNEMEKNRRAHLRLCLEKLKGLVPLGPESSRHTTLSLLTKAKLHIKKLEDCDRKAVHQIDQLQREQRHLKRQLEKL
Strand | E-score
CGCCCACG | 0.316
GCGTACAC | 0.286
ATACAGCA | 0.251
CAGCATGG | 0.426
ACGAGGAA | 0.357
GCATGGGA | 0.367
AGAACATG | 0.284
ACCCCGTG | 0.419

Sample 3 — technique: aptamer microarray, sandwich; form: DNA with 2'F-ANA; matrix: in vitro; concentration: 200 nM; added: Cy3 exosite-II aptamer, 400 nM; direction: higher = stronger binding; strand: GGTTGGTGTGGTTGG
Target: Prothrombin, mature alpha-thrombin (F2, Homo sapiens, UniProt P00734)
Notes: whole 15-mer aptamer, many near background
Modification | mean fluorescence intensity
2'F-ANA at 3 5 6 7 8 9 11 12 13 14 | 60.7 a.u.
2'F-ANA at 2 3 4 5 7 8 9 15 | 117 a.u.
2'F-ANA at 1 3 4 5 6 8 10 11 14 15 | 49.3 a.u.
2'F-ANA at 4 5 7 11 12 13 15 | 72.7 a.u.
2'F-ANA at 3 5 9 10 14 | 49.1 a.u.
2'F-ANA at 1 5 7 12 14 15 | 51.9 a.u.
2'F-ANA at 4 5 7 8 9 11 12 13 14 15 | 52.8 a.u.
2'F-ANA at 1 5 6 7 8 11 12 13 15 | 80.4 a.u.

Further values, each from its own experiment
Compound | target | assay | setting | measurement | result
O=S(=O)(NC1CCC(c2cc(F)ccc2F)(S(=O)(=O)c2ccc(Cl)cc2)CC1)C(F)(F)F (stereo not shown) | Phosphatidylinositol 4,5-bisphosphate 3-kinase catalytic subunit beta isoform (PIK3CB, Homo sapiens, UniProt P42338) | cell-free assay, competition with immobilised ligand | 1 µM | remaining binding | 100%

Some of these lines once more (further values, each from its own experiment):
Compound | target | assay | setting | measurement | result
O=S(=O)(NC1CCC(c2cc(F)ccc2F)(S(=O)(=O)c2ccc(Cl)cc2)CC1)C(F)(F)F (stereo not shown) | Phosphatidylinositol 4,5-bisphosphate 3-kinase catalytic subunit beta isoform (PIK3CB, Homo sapiens, UniProt P42338) | cell-free assay, competition with immobilised ligand | 1 µM | remaining binding | 100%
